Published values of several laboratories.
Numbered parts are unrelated; each lists some results of a single study.
UniProt Q16512, sequence (whole entry, looked up): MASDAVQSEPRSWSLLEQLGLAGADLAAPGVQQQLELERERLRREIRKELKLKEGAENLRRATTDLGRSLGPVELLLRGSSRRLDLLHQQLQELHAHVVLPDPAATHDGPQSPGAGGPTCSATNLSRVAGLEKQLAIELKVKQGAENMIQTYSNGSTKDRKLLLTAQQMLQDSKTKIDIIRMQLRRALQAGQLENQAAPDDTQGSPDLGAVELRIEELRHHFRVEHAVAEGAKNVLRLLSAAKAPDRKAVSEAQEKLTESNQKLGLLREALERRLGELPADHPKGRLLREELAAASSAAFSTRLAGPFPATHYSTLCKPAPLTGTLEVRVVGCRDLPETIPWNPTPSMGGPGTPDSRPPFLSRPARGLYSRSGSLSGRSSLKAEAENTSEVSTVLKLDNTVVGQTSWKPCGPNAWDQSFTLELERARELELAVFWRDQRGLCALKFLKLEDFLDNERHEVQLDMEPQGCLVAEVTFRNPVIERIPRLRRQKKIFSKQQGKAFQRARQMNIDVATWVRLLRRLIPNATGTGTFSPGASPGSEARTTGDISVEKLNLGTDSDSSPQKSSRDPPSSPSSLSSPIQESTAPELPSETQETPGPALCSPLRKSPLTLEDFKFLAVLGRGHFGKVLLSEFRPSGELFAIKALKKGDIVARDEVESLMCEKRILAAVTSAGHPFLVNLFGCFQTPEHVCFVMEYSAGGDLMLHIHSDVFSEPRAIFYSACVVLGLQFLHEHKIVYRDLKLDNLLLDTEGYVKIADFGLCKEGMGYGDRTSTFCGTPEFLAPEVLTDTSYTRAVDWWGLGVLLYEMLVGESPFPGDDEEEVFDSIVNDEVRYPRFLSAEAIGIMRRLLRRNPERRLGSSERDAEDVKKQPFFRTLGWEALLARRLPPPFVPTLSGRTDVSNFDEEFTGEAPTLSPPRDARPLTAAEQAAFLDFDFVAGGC
UniProt Q00532, sequence (whole entry, looked up): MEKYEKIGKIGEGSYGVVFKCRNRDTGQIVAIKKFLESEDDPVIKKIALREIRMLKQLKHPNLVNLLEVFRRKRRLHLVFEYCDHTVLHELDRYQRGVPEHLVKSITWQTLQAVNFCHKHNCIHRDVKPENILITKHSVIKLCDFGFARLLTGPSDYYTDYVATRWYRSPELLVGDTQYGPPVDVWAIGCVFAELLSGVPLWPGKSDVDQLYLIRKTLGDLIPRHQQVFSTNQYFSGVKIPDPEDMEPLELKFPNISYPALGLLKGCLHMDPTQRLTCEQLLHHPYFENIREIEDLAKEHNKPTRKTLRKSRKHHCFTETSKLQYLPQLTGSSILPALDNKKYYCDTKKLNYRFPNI
UniProt Q15349, sequence (whole entry, looked up): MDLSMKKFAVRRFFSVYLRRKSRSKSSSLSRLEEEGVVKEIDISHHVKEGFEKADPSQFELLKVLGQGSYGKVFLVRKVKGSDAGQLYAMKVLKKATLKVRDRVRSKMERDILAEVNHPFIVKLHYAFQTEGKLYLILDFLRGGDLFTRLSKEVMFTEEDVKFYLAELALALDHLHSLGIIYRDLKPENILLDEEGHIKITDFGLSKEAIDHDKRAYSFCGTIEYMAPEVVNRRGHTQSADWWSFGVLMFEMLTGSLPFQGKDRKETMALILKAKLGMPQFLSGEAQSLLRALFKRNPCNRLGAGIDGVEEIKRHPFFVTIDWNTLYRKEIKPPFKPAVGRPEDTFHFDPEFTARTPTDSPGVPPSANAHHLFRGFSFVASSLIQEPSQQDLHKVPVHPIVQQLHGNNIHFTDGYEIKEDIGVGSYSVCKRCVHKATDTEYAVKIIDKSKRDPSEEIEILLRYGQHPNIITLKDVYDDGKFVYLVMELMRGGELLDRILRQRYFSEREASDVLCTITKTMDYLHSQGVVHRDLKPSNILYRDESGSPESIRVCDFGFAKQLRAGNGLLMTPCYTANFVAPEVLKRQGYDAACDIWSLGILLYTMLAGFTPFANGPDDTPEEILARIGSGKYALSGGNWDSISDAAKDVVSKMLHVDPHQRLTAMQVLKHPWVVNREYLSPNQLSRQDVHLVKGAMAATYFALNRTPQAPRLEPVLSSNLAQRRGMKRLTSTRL
UniProt P78362, sequence (whole entry, looked up): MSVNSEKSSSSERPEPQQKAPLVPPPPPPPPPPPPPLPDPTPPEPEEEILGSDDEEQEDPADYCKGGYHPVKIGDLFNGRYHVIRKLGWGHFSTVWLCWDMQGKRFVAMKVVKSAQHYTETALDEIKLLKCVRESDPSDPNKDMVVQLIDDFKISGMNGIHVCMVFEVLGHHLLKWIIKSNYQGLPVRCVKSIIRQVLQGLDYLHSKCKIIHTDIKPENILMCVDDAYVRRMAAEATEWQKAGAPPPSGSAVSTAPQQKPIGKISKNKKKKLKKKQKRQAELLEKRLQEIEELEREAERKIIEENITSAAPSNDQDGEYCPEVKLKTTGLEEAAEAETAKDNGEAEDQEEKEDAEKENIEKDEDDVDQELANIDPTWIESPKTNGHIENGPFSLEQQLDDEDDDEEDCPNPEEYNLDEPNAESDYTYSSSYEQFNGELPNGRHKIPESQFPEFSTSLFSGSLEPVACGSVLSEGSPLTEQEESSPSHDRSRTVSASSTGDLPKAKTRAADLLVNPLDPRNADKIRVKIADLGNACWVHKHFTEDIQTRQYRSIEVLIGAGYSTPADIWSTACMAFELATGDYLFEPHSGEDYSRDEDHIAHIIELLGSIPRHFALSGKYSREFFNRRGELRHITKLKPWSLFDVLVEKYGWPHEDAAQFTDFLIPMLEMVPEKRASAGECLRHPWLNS

Study 1
Cell line: mouse MPNST tumor cells
Method: high-content nuclear imaging
Measured: cell number
Concentration: 10 µM
Time: 12 h
Notes: mean of 2 replicates
Baseline: plate mean
Direction: higher = more cells
For `CCOc1cc(C(=O)N2CCC(N3CCN(C)CC3)CC2)ccc1Nc1ncc2c(n1)N(C1CCCC1)c1ccccc1C(=O)N2C`, the nuclei count was -4.86 z-score.
For `CCN(c1nc(N)c(C(=O)N=C(N)N)nc1Cl)C(C)C`, the nuclei count was 2.9 z-score.
With `Cn1c(=O)c2[nH]cnc2n(C)c1=O` the nuclei count was -0.034 z-score.
With `Cc1cc([C@@H](C)Nc2ccccc2C(=O)O)c2nc(N3CCOCC3)cc(=O)n2c1` the nuclei count was 0.77 z-score.
With `CNCc1ccc(-c2[nH]c3cc(F)cc4c3c2CCNC4=O)cc1` the nuclei count was 1.91 z-score.
`CC(C)OC(=O)CCC/C=C\C[C@@H]1[C@@H](CC[C@@H](O)CCc2ccccc2)[C@H](O)C[C@@H]1O` has a nuclei count of -0.812 z-score.
`Fc1ccc(-c2c3cccc(C(F)(F)F)c3nn2Cc2ccc(F)cc2Cl)cc1` gave a nuclei count of 2.71 z-score.
`Cc1cccc2c1CC[C@H](CN1CCC(c3c(Cl)cccc3Cl)CC1)C[C@@H]2O` has a nuclei count of -0.494 z-score.
For `COCCN1CCC(C(=O)NO)(S(=O)(=O)c2ccc(Oc3ccc(OC(F)(F)F)cc3)cc2)CC1`, the nuclei count was 1.47 z-score.

Study 2
Structure (SMILES): CC(C)(O)c1cncc(-c2nc3ccc(F)cc3n2C2CC2)c1
Observed: cell-free assay
Method: competition with immobilised ligand
Concentration: 1 µM
Epidermal growth factor receptor (EGFR, Homo sapiens, UniProt P00533, del752-759) — remaining binding: 100%.
Cytoplasmic tyrosine-protein kinase BMX (BMX, Homo sapiens, UniProt P51813) — remaining binding: 100%.
The remaining binding was 100% (Serine/threonine-protein kinase N1 (PKN1, Homo sapiens, UniProt Q16512)).
Serine/threonine-protein kinase Nek11 (NEK11, Homo sapiens, UniProt Q8NG66) — remaining binding: 100%.
Epidermal growth factor receptor (EGFR, Homo sapiens, UniProt P00533, G719S) — remaining binding: 100%.
SRSF protein kinase 2 (SRPK2, Homo sapiens, UniProt P78362) — remaining binding: 86%.
Serine/threonine-protein kinase 38 (STK38, Homo sapiens, UniProt Q15208) — remaining binding: 99%.
The remaining binding was 100% (Ribosomal protein S6 kinase alpha-4, C-terminal kinase domain (RPS6KA4, Homo sapiens, UniProt O75676)).
It gave 100% for remaining binding (Mitogen-activated protein kinase kinase kinase 14 (MAP3K14, Homo sapiens, UniProt Q99558)).
It gave 100% for remaining binding (Cyclin-dependent kinase-like 1 (CDKL1, Homo sapiens, UniProt Q00532)).
For Ribosomal protein S6 kinase alpha-2, C-terminal kinase domain (RPS6KA2, Homo sapiens, UniProt Q15349): remaining binding read 100%.

Study 3
Target: Proto-oncogene tyrosine-protein kinase ROS (ROS1, Homo sapiens, UniProt P08922)
UniProt P08922, sequence (whole entry, looked up): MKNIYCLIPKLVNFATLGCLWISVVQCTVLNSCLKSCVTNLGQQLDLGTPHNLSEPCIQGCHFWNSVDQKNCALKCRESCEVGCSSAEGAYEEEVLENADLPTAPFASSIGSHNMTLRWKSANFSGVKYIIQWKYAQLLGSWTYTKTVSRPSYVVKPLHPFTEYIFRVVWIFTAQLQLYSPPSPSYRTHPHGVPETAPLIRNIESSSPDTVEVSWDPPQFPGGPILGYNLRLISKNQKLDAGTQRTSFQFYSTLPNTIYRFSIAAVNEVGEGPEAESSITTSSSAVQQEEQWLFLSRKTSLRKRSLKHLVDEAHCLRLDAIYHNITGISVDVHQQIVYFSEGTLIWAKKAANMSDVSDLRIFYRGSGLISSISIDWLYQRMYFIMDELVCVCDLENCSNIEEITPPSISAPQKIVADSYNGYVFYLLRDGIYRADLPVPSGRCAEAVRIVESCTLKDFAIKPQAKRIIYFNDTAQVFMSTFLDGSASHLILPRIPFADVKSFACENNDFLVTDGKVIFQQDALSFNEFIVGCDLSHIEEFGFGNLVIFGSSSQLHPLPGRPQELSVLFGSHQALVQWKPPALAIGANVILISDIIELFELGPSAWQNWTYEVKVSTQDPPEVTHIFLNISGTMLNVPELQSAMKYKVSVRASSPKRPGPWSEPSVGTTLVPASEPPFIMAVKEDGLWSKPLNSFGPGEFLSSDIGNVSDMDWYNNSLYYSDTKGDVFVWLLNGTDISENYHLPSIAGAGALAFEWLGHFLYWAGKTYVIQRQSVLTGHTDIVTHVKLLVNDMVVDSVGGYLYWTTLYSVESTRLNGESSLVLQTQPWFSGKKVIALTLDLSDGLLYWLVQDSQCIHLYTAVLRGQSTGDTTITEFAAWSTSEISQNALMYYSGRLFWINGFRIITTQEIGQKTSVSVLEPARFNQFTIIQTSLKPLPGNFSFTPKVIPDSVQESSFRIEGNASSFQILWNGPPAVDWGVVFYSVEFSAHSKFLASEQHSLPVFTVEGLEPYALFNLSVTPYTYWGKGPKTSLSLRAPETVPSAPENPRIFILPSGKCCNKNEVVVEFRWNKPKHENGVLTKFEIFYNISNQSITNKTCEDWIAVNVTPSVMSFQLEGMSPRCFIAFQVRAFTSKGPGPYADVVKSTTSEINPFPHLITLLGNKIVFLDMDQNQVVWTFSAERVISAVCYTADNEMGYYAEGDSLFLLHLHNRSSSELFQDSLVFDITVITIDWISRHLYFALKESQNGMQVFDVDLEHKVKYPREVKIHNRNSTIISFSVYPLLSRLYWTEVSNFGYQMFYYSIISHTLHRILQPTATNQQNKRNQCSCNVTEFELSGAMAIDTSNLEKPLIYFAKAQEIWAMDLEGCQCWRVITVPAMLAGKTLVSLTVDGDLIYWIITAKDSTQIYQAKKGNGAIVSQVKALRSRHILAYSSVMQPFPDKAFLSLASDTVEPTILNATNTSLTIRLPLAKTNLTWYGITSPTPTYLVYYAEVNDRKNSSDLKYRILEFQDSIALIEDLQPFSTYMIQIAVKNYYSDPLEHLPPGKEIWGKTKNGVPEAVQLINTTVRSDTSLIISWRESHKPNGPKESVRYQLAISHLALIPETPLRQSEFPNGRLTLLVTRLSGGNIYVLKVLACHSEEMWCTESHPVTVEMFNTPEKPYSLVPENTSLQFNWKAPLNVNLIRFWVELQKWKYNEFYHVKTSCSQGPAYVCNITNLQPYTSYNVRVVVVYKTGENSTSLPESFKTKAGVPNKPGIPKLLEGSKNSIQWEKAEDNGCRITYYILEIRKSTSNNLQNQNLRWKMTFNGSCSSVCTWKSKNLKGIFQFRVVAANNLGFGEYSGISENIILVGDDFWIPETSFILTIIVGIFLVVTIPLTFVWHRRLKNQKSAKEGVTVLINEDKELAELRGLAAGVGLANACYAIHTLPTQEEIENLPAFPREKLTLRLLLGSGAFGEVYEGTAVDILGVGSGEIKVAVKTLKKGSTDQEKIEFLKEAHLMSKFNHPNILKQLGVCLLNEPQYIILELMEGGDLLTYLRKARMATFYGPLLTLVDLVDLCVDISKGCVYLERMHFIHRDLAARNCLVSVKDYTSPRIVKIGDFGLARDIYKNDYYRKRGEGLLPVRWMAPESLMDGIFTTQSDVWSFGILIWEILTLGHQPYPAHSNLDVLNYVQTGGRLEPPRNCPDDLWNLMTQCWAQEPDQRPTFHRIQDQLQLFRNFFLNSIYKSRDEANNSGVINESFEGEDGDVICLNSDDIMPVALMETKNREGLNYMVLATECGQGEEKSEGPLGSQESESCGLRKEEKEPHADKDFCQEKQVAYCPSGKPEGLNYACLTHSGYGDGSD
Observed: enzyme activity
Action: inhibitor
Concentration: 0.5 µM
Baseline: control
With `COc1cc2ncnc(Nc3ccc(F)c(Cl)c3)c2cc1OCCCN1CCOCC1` the remaining activity was 92.3%.
`OCC(O)CCON=C1C(c2c(O)[nH]c3ccccc23)=Nc2ccccc21` (centres unmarked) gave a remaining activity of 27%.
`O=C(O)c1ccc2c3c1cccc3c(=O)n1c3ccccc3nc21` has a remaining activity of 95.2%.
For `CN(C)c1ccc(C=C2C(=O)Nc3ccccc32)cc1`, the remaining activity was 94.9%.
`COc1ccc(C(=O)Nc2sc3c(c2C(N)=O)CCCC3)cc1OC` gave a remaining activity of 78.8%.
The remaining activity of `Nc1ccc2ncnc(NCCc3ccc(Oc4ccccc4)cc3)c2c1` is reported as 97.8%.
With `NCCNc1ncc(C(N)=O)c(Nc2cccc(C(F)(F)F)c2)n1` the remaining activity was 86.6%.
The remaining activity of `O=c1c2ccccc2[nH]c(=S)n1CCN1CCC(=C(c2ccc(F)cc2)c2ccc(F)cc2)CC1` is reported as 98.8%.
The remaining activity of `O=S(=O)(c1cccc2cnccc12)N1CCCNCC1` is reported as 101%.
The remaining activity of `N#CC(C#N)=C(N)/C(C#N)=C/c1ccc(O)cc1` is reported as 97.1%.
With `COc1ccc(OC)c2c(=S)c3ccccc3[nH]c12` the remaining activity was 103%.
`Nc1[nH]nc2nc3ccccc3nc12` has a remaining activity of 106%.
For `Oc1ccc(-c2nc(-c3ccncc3)c(-c3ccc(F)cc3)[nH]2)cc1`, the remaining activity was 89.8%.
The remaining activity of `Cc1nc(-c2ccccc2)c(-c2ccncc2)o1` is reported as 96%.
For `O=C(Nc1cccc(Nc2cc(Nc3cccc(C(F)(F)F)c3)ncn2)c1)C1CC1`, the remaining activity was 93.5%.
`Nc1ncnc2n[nH]c(Nc3ccc(F)cc3)c12` has a remaining activity of 99.9%.

Study 4
Cell line: A-375
Concentration: 100 µM
Time: 36 h
`Oc1cc(O)c(Cl)cn1` has a viability of 109%.
`N=C(N)/N=C(\N)N1CCOCC1` gave a viability of 105%.
`Cc1c(NC(=O)c2cccnc2)c(=O)n(-c2ccccc2)n1C` gave a viability of 107%.
`Cc1ccc(C(=O)Nc2ccc(CN3CCN(C)CC3)c(C(F)(F)F)c2)cc1C#Cc1cnc2cccnn12` has a viability of 0.728%.
`CC(C)Cc1ccc([C@H](C)C(=O)O)cc1` has a viability of 104%.
For `COC(=O)N[C@H](C(=O)N1CCC[C@H]1c1nc(-c2ccc(-c3ccc(-c4c[nH]c([C@@H]5CCCN5C(=O)[C@@H](NC(=O)OC)C(C)C)n4)cc3)cc2)c[nH]1)C(C)C`, the viability was 9.23%.
`O=c1oc2cc(O)ccc2s1` gave a viability of 107%.
The viability of `Cc1ccccc1N1C(=O)c2cc(S(N)(=O)=O)c(Cl)cc2NC1C` (centres unmarked) is reported as 113%.
The viability of `CN(Cc1cc(Br)cc(Br)c1N)C1CCCCC1` is reported as 5.79%.
`CC(C)[C@H]1CC[C@H](C(=O)N[C@H](Cc2ccccc2)C(=O)O)CC1` has a viability of 102%.
With `c1ccc2c(c1)CCCC2C1=NCCN1` (centres unmarked) the viability was 113%.

For quick reference, copied from above (study 2):
SRSF protein kinase 2 (SRPK2, Homo sapiens, UniProt P78362) — remaining binding: 86%.
Serine/threonine-protein kinase 38 (STK38, Homo sapiens, UniProt Q15208) — remaining binding: 99%.
The remaining binding was 100% (Ribosomal protein S6 kinase alpha-4, C-terminal kinase domain (RPS6KA4, Homo sapiens, UniProt O75676)).
It gave 100% for remaining binding (Mitogen-activated protein kinase kinase kinase 14 (MAP3K14, Homo sapiens, UniProt Q99558)).
It gave 100% for remaining binding (Cyclin-dependent kinase-like 1 (CDKL1, Homo sapiens, UniProt Q00532)).
